Assay results collected from several papers.
Each numbered part is a random draw from the data of one study; scales do not carry over between parts. Changes are numbered by the printed parent chain.

Series 1
Target: ABI1, truncated, D143A, DHFR fusion (Arabidopsis thaliana)
Method: DHFR PCA, deep sequencing
Medium: yeast
Setting: methotrexate growth selection, single substitutions
Added: (+)-ABA 17 µM
Reference: wild-type fitted maximum
Reading: higher = stronger binding
Quantity: relative binding score
Parent: PYL1, truncated, DHFR fusion (Arabidopsis thaliana); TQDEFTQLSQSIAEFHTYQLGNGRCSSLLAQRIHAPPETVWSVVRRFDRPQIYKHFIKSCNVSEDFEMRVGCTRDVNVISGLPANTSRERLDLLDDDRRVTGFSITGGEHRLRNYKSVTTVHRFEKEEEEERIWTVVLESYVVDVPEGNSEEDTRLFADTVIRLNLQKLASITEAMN
V137Y: 4.84%
F103A: -10.9%
A175H: 87.1%
S27Q: 55.1%
K58V: 40.7%
T119A: 14%
G81W: -4.49%
T17V: 52.8%

Series 2
Target: Prothrombin, mature alpha-thrombin (F2, Homo sapiens, UniProt P00734)
Method: aptamer microarray, sandwich
Molecule type: DNA with 2'F-ANA
Medium: in vitro
Tested at: 200 nM
Setting: whole 15-mer aptamer, many near background
Added: Cy3 exosite-II aptamer, 400 nM
Reading: higher = stronger binding
Quantity: mean fluorescence intensity
Oligonucleotide: GGTTGGTGTGGTTGG
2'F-ANA at 1 4 6 7 9 14: 63.3 a.u.
2'F-ANA at 1 5 7 8 10 12 15: 58.6 a.u.
2'F-ANA at 1 3 4 9 11 12 13: 219 a.u.
2'F-ANA at 3 6 7 11 13 14: 603 a.u.
2'F-ANA at 1 3 4 6 7 14: 68.3 a.u.
2'F-ANA at 3 5 8 9 10 12 13 14 15: 55.9 a.u.
2'F-ANA at 2 5 6 8 9 10 11 12 13 14: 51.2 a.u.
2'F-ANA at 1 6 7 11 12 13 14 15: 67.9 a.u.

Further values, each from its own experiment
KAVKRKLFAEDSS  median binding score (human cyclin A2; peptide binding, competitive growth sequencing; peptide, Saccharomyces cerevisiae, cyclin A2-Cln2 fusion strain; concentration not given, single-residue mutant peptides; reference: unfused Cln2 strain, direction not given): 5.96
C[C@]12CC[C@H](O)CC1=CC[C@@H]1[C@@H]2CC[C@@]2(C)[C@H]1CC[C@]2(C)O  log2 fold change (Sarcocystis neurona; parasite growth; 10 µM, 96 h, first screen; reference: untreated): 0.024
KDVKRKLFAEDSS  median binding score (human cyclin A2; peptide binding, competitive growth sequencing; peptide, Saccharomyces cerevisiae, cyclin A2-Cln2 fusion strain; concentration not given, single-residue mutant peptides; reference: unfused Cln2 strain, direction not given): 6.27

For quick reference, copied from above (series 2):
2'F-ANA at 1 3 4 6 7 14: 68.3 a.u.
